Earlier results, collected from citations in different studies.
Numbered parts are unrelated; values within a part may stem from several laboratories. ± marks the error that the study gave.

Sample 1
Target: HLA class I histocompatibility antigen, A alpha chain, allele A*26:03 (Homo sapiens, UniProt P04439)
Effect on: peptide-MHC binding
Molecule type: peptide
| Molecule | IC50 |
| --- | --- |
| QLKQRDALF | > 20 µM |
| PRFGSCYFL | > 20 µM |
| RSLYNTIAVLY | > 20 µM |
| KVFFGPIYY | > 20 µM |
| MGKTITDVK | > 20 µM |
| IISTNTLGK | > 20 µM |
| SEVKFKYVL | > 20 µM |
| NVHRSQFAQ | > 20 µM |
| REIGDISYL | > 20 µM |
| KSNRIPFLY | > 20 µM |
| KSLFNTVATLY | > 20 µM |
| TYSPALNKM | > 20 µM |
| RELYYRLKF | > 20 µM |
| IQFMHEQGY | > 20 µM |
| QVFKGVVIR | > 20 µM |
| EQRLIDICV | > 20 µM |
| RSLFNTIAVLY | > 20 µM |
| DPKKTGGPI | > 20 µM |
| RSLFNTVATLY | > 20 µM |
| IHSDQLSKF | > 20 µM |
| KLKSLYNTV | > 20 µM |
| FTYAPAGMY | 0.114 µM |
| ILRPLGIEY | > 20 µM |
| IARLVYKAR | > 20 µM |
| ETPGSTDNY | 0.138 µM |

Further values, each from its own experiment
Oprm1: Mu-type opioid receptor (Oprm1, Mus musculus, UniProt P42866)
| Compound | target or system | test | test system | setting | how to read | measurement | result |
| --- | --- | --- | --- | --- | --- | --- | --- |
| FC1(F)C(F)(F)C(F)(F)C2(F)C(F)(C1(F)F)C(F)(F)C(F)(F)C1(F)C(F)(F)C(F)(F)C(F)(F)C(F)(F)C12F (centres unmarked) | CYP2C19 | inhibitor | – | Tox21 screening | – | IC50 | inactive |
| COc1ccc(C[C@@H](C)[C@@H](C)Cc2ccc(OC)c(OC)c2)cc1OC | – | – | human | intravenous, 1700 mg, initial dose | – | AUC | 31300 ng·h/mL |
| [Cl][Cd][Cl] | HepG2 | DNA damage, comet | – | – | – | lowest effective concentration | 2 µM |
| CN1CCN(C2=Nc3ccccc3Oc3ccc(Cl)cc32)CC1 | – | – | human, plasma | dose not given, range of reported values | – | AUC | 0.034 to 0.429 µM·h |
| C[C@@H](O)[C@H]1C(=O)N2C(C(=O)O)=C(S[C@@H]3CN[C@H](C(=O)N(C)C)C3)[C@H](C)[C@H]12 | Metallo-beta-lactamase type 2, Δ35 (blaNDM-1, Klebsiella pneumoniae, UniProt C7C422) | substrate | – | – | – | Km | 54 µM |
| CSC[C@H]1CN(Cc2c[nH]c3c(N)ncnc23)C[C@@H]1O | Aminodeoxyfutalosine nucleosidase (Helicobacter pylori, UniProt Q9ZMY2) | – | – | tight complex after isomerization | – | Ki | 0.089 ± 0.019 nM |
| CCCCCCCC[C@H]1O[C@H]1C/C=C/C=C/[C@H](O)CC(=O)NC1=C[C@](C)(CC)OC1=O | Na+-NQR Vibrio alginolyticus NqrB G140V | – | – | – | relative to: mutant over wild type | resistance factor | ~100000 |
| O=C(O)C(F)(F)C(F)(F)C(F)(F)C(F)(F)C(F)(F)F | – | polarographic respiration | isolated rat liver mitochondria | 200 µM | – | oxidative phosphorylation | no effect |
| O=C(NC1C=C[C@H]2[C@H]3Cc4ccc(O)c5c4[C@@]2(CCN3CC2CC2)C1O5)c1cccc(I)c1 (some centres unmarked) | Oprm1 | – | – | – | – | EC50 | 0.00021 ± 3e-05 µM |
| COC(=O)C[C@@H]1N=C(c2ccc(Cl)cc2)c2c(sc(C)c2C)-n2c(C)nnc21 | Bromodomain-containing protein 4, BD1 (BRD4, Homo sapiens, UniProt O60885) | biochemical | – | bromodomain 1 | – | IC50 | 0.03 µM |
| CC1(C)CCC(CN2CCN(c3ccc(C(=O)NS(=O)(=O)c4ccc(NCC5CCOCC5)c([N+](=O)[O-])c4)c(Oc4cnc5[nH]ccc5c4)c3)CC2)=C(c2ccc(Cl)cc2)C1 | – | – | human | 400 mg once daily | – | AUC at steady state | 36900 ng·h/mL |
| CC(=O)O[C@@]12CO[C@@H]1C[C@H](O)[C@@]1(C)C(=O)[C@H](OC(=O)C3CC3)C3=C(C)[C@@H](OC(=O)[C@H](O)[C@H](C=C(C)C)NC(=O)OC(C)(C)C)C[C@@](O)([C@@H](OC(=O)c4ccccc4)[C@H]21)C3(C)C | MCF7/PTX, paclitaxel-resistant | cell viability | – | – | – | IC50 | 0.0805 ± 0.00762 µM |
| O=C[C@H](O)COP(=O)(O)O | Triosephosphate isomerase, glycosomal (Trypanosoma brucei brucei, UniProt P04789) | substrate | – | pH 5.7 | – | Km | 980 µM |
| COC(=O)[C@@H]1C[C@H](OC(C)=O)C(=O)[C@H]2[C@@]1(C)CC[C@H]1C(=O)O[C@H](c3ccoc3)C[C@]21C | kappa opioid receptor Y313A | – | – | – | – | Ki | 694 ± 106 nM |
| CN(C)N=O | HepaRG | DNA damage, comet | – | – | – | lowest effective concentration | 4000 µM |
| C/C=C1/CN2CC[C@]34C(=C(C(=O)OC)[C@H]1C[C@H]23)Nc1ccc(I)cc14 | kappa opioid receptor | – | – | – | relative to: KOR over 5-HT3 receptor | selectivity ratio | 380 |
| c1cncc(C2=NCCC2)c1 | nicotinic acetylcholine receptor alpha4beta2 | – | – | – | – | Ki | 3300 nM |
| c1ccc2c(c1)ccc1c3ccccc3ccc21 | – | substrate | human liver microsomes | – | – | Vmax | 0.012 nmol/min/mg |
| CC(O)CN1CCN(CC(=O)[O-])CCN(CC(=O)[O-])CCN(CC(=O)[O-])CC1.[Gd+3] (centres unmarked) | – | – | saline | 310 K, 0.47 T | – | relaxivity r1 | 3.5 mM⁻¹ s⁻¹ |
| O=C(N[C@@H]1CCC2C3Cc4ccc(O)c5c4[C@@]2(CCN3CC2CC2)C1O5)c1cccc(I)c1 (some centres unmarked) | Oprm1 | – | – | – | – | EC50 | 0.00032 ± 3e-05 µM |
| O=C(NC[C@H]1CN(c2ccc(N3CCOCC3=O)cc2)C(=O)O1)c1ccc(Cl)s1 | prothrombinase (factor Xa-factor Va complex) | inhibitor | – | closed non-flow system | – | IC50 | 0.0021 µM |
| O=C(O)C(F)(F)C(F)(F)C(F)(F)C(F)(F)C(F)(F)C(F)(F)F | CYP2C19 | inhibitor | – | Tox21 screening | – | IC50 | inactive |
| C[C@]12CCC(=O)C=C1CC[C@@H]1[C@@H]2[C@@H](O)C[C@@]2(C)[C@H]1CC[C@]2(O)C(=O)CO | – | – | human, plasma | dose not given, range of reported values | – | AUC | 0.853 to 8.15 µM·h |
| CC[C@H](C)CCCCC(=O)N[C@@H](CCN)C(=O)N[C@H](C(=O)N[C@@H](CCN)C(=O)N[C@H]1CCNC(=O)[C@H]([C@@H](C)O)NC(=O)[C@H](CCN)NC(=O)[C@H](CCN)NC(=O)[C@H](CC(C)C)NC(=O)[C@@H](CC(C)C)NC(=O)[C@H](CCN)NC1=O)[C@@H](C)O | – | – | patients | below 3 mg/kg/day (ideal body weight) | – | nephrotoxicity incidence | 54.5% |
| Cc1cccc2c1ccc1cc(C(C)C)ccc12 | – | metabolism, substrate | human liver microsomes | – | – | Vmax | 0.00564 nmol/min/mg |
